Measurements from different studies.
Lines come from different studies, so protocols differ. ± marks the error that the study gave.
GBA2: Beta-glucosidase (GBA2, Homo sapiens, UniProt Q9HCG7)
Chain of UniProt Q9HCG7 (whole entry, looked up): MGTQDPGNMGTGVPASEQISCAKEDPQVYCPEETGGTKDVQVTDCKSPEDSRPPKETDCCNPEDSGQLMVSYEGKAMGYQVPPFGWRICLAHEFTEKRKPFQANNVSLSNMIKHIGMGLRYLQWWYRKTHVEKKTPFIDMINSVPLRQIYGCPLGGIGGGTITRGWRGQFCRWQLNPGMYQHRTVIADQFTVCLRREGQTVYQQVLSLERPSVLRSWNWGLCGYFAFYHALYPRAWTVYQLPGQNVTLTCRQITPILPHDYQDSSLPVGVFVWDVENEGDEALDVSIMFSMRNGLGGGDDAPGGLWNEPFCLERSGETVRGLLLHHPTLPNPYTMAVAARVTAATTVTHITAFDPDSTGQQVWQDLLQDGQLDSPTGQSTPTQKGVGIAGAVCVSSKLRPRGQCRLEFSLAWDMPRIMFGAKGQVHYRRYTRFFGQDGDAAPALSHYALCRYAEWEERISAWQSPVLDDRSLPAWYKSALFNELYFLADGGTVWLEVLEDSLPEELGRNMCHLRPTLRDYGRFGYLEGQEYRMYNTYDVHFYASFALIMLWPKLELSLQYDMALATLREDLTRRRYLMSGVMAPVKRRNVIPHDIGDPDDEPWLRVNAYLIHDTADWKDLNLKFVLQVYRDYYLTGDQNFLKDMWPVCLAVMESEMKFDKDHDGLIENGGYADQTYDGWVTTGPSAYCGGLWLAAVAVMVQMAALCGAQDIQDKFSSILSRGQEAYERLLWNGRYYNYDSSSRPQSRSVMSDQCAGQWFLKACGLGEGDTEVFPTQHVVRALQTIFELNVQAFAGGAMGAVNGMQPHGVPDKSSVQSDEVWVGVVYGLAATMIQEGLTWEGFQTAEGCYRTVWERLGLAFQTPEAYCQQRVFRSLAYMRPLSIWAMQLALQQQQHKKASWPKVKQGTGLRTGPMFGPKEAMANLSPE

Structure (SMILES) | tested on | assay | test system | setting | how to read | quantity | value
CC(C)C[C@H](NC(=O)[C@H](Cc1ccc(O)cc1)NC(=O)[C@@H]1CCCN1C(=O)[C@H](CCCNC(=N)N)NC(=O)[C@@H]1CCCN1C(=O)[C@H](CCCCN)NC(=O)[C@H](CC(=O)O)NC(=O)[C@@H]1CCCN1C(=O)[C@H](CCCNC(=N)N)NC(=O)C1(N)CCCCC1)C(=O)N1CCC[C@H]1C(=O)N[C@@H](CCCNC(=N)N)C(=O)N1CCC[C@H]1C(=O)N[C@@H](CCCNC(=N)N)C(=O)N1CCC[C@H]1C(=O)N1CCC[C@H]1C(=O)N[C@@H](CCCNC(=N)N)C(=O)N1CCC[C@H]1C(=O)N[C@H](C(=O)N[C@@H](CCCNC(=N)N)C(=O)N[C@@H](CSCc1ccccc1CSC[C@H](NC(=O)[C@H](CCCNC(=N)N)NC(=O)[C@@H](NC(=O)[C@@H]1CCCN1C(=O)[C@H](CCCNC(=N)N)NC(=O)[C@@H]1CCCN1C(=O)[C@@H]1CCCN1C(=O)[C@H](CCCNC(=N)N)NC(=O)[C@@H]1CCCN1C(=O)[C@H](CCCNC(=N)N)NC(=O)[C@@H]1CCCN1C(=O)[C@H](CC(C)C)NC(=O)[C@H](Cc1ccc(O)cc1)NC(=O)[C@@H]1CCCN1C(=O)[C@H](CCCNC(=N)N)NC(=O)[C@@H]1CCCN1C(=O)[C@H](CCCCN)NC(=O)[C@H](CC(=O)O)NC(=O)[C@@H]1CCCN1C(=O)[C@H](CCCNC(=N)N)NC(=O)C1(N)CCCCC1)C(C)C)C(=O)NN)C(=O)NN)C(C)C | Acinetobacter baumannii | membrane disruption, propidium iodide uptake | 19606 | 90 min, 37 °C |  | MDC | 25.7 ± 1 µg/mL
NCCOCCO.O=C(O)C(Cl)Cl | Amaranthus retroflexus | herbicidal activity |  | 15 mg/mL, 21 days, post-emergence greenhouse |  | inhibition | 0%
COC1C=COC2(C)Oc3c(C)c(O)c4c(c3C2=O)C2=NC3(CCN(CC(C)C)CC3)NC2=C(NC(=O)C(C)=CC=CC(C)C(O)C(C)C(O)C(C)C(OC(=O)c2cccnc2)C1C)C4=O (stereo not drawn) | Mycobacteroides abscessus | intracellular growth, visual read | THP-1 derived macrophages, ATCC 19977 |  |  | IC90 | 0.34 µM
C=C(NC(=O)c1csc(-c2nc3c(cc2O)-c2nc(cs2)C(=O)NC(C(C)O)C(=O)NC(=C(C)OC)c2nc(cs2)C(=O)NC2c4nc(cs4)C(=O)NC(COC(=O)c4c5c6c(cccc6n4O)COC(=O)C(OC4CC(C)(O)C(N(C)C)C(C)O4)C2OC5)c2nc-3cs2)n1)C(N)=O (stereo not drawn) | Streptococcus pneumoniae |  | -25, immunocompromised mice, lung infection, lung | 2 mg/kg/day three times daily, 24 h post-dose |  | bacterial load | 3.98 log CFU/g
FC(F)(F)c1cccc(CNc2nc(NC3CCN(Cc4ccccc4)CC3)c3nc[nH]c3n2)c1 | Cryptococcus neoformans |  |  | 50 µM, 17 h, shaken broth culture | reference: DMSO | growth inhibition | ~95%
CNCc1ccc2c(c1)C[C@H](CNC(=N)N)[C@H]2NC(=O)C(=O)Nc1ccc(Cl)c(F)c1 | HIV-1 | pseudovirus infection, Env pseudovirus neutralisation | TZM-bl, clade G isolate C1_B5 |  |  | IC80 | 40.4 µM
CC(O)CNCC(C)O.O=C(O)C(Cl)Cl (stereo not drawn) | Eleusine indica |  |  | 15 mg/mL, 21 days, pre-emergence, greenhouse |  | herbicidal inhibition | 0%
CCOC(=O)c1ccc(OCCC2CCN(c3ccc(C)nn3)CC2)cc1 | Rhinovirus B | viral replication, high-content imaging | RV-B14 |  |  | IC50 | 0.024 ± 0.025 µM
OC[C@H]1[C@@H](O)[C@H](O)[C@@H](O)CN1CCCCCOCC(COCCCCCN1C[C@H](O)[C@@H](O)[C@H](O)[C@@H]1CO)C12CC3CC(CC(C3)C1)C2 (stereo partly drawn) | GBA2 | inhibitor, 4MU-β-D-glucopyranoside | HEK293T homogenates overexpressing GBA2 |  | reference: GCS IC50 over GBA2 IC50 | selectivity ratio | 67
O=C1C(=O)c2[nH]cc3c2C(=C1I)NCC3 | Babesia divergens | parasite growth, SYBR Green |  | 60 h, blood stage |  | IC50 | 10 µM
Cc1cccc2c1N(C(=O)n1ccnn1)CC2 | Arabidopsis thaliana |  | wild type | 0.3 µM, seedlings |  | hypocotyl length | 10.8 mm
OC[C@@H]1[C@@H](O)[C@H](O)[C@@H](O)CN1CCCCCOCc1ccc2ccccc2c1 | GBA2 | inhibitor, 4MU-β-D-glucopyranoside | HEK293T homogenates overexpressing GBA2 |  | reference: GCS IC50 over GBA2 IC50 | selectivity ratio | 3
